# Results from different studies.
# Lines come from different studies, so protocols differ. ± gives the spread as reported.
Structure (SMILES),test,test system,conditions,how to read,measurement,value
FC(F)(F)c1cccc(Nc2ncnc3ccccc23)c1,"potentiometric, initial protocol","octanol/water, 0.15 M KCl",neutral species,,logP,4.32
COc1cc(/C=C/C(=O)CC(=O)/C=C/c2ccc(O)c(OC)c2)ccc1O,I-125 label,"C57BL/6J mouse, olfactory lobes","intranasal vs intraperitoneal, 10 µg/mouse IN, 100 µg/mouse IP, 8 h",baseline: intranasal over intraperitoneal,brain uptake ratio,4.68
C[C@H]1Oc2cc(cnc2N)-c2c(nn(C)c2C#N)CN(C)C(=O)c2ccc(F)cc21,,human (NSCLC and healthy),"oral, PopPK, steady state",,maximum induced clearance,242 mL/min
CNC(=O)c1cc(Oc2ccc(NC(=O)Nc3ccc(Cl)c(C(F)(F)F)c3)c(F)c2)ccn1,,"metastatic colorectal cancer patients, plasma","oral, 120 mg once daily, 5 days, with: esomeprazole 40 mg concomitant",,AUC(0-24h),53.7 µg·h/mL
O=c1ccn([C@@H]2O[C@H](CO)[C@@H](O)[C@H]2O)c(=O)[nH]1,UHPLC-MS,"male CD-1 mice, plasma","intravenous, 1 mg/kg, from 4 h postdose",,terminal half-life,12.2 h
CC[C@H](C)[C@H](NC(=O)CNC(=O)[C@H](Cc1ccccc1)NC(C)=O)C(=O)N[C@@]1(C)CCCC=CCCC[C@@](C)(C(=O)N[C@@H](CC(C)C)C(N)=O)NC(=O)[C@H](CC(N)=O)NC(=O)[C@H]([C@@H](C)O)NC(=O)[C@H](CC(C)C)NC1=O,circular dichroism,PBS with 50% trifluoroethanol,"0.3 mg/mL, pH 7.4, 25 °C",,α-helicity,20.6%
Cc1ccc(C(=O)NCc2c3c(c(C)[nH]c2=O)CCCC3)cn1,U-HPLC,20% DMSO in water,,,kinetic solubility,0.184 mg/mL
CCN(CC)CCNC(=O)c1c(C)[nH]c(/C=C2\C(=O)Nc3ccc(F)cc32)c1C,,"human, plasma","oral, 20 mg/m2, day 28",,maximum trough plasma concentration,86.2 ng/mL
CCCCCCCC(=O)OC[C@H](NC(=O)[C@H](CO)NC(=O)CN)C(=O)N[C@H](C(=O)N[C@@H](CC(C)C)C(=O)N[C@@H](CO)C(=O)N1CCC[C@H]1C(=O)N[C@@H](CCC(=O)O)C(=O)N[C@@H](Cc1c[nH]cn1)C(=O)N[C@@H](CCC(N)=O)C(=O)N[C@@H](CCCNC(=N)N)C(=O)N[C@H](C(=O)N[C@@H](CCC(N)=O)C(=O)N[C@@H](CCC(N)=O)C(=O)N[C@@H](CCCNC(=N)N)C(=O)N[C@@H](CCCCN)C(=O)N[C@@H](CCC(=O)O)C(=O)N[C@@H](CO)C(=O)N[C@@H](CCCCN)C(=O)N[C@@H](CCCCN)C(=O)N1CCC[C@H]1C(=O)N1CCC[C@H]1C(=O)N[C@@H](C)C(=O)N[C@@H](CCCCN)C(=O)N[C@@H](CC(C)C)C(=O)N[C@@H](CCC(N)=O)C(=O)N1CCC[C@H]1C(=O)N[C@@H](CCCNC(=N)N)C(=O)O)C(C)C)[C@H](c1ccccc1)c1c[nH]c2ccccc12,RP-HPLC Jupiter Proteo,,acetonitrile/water TFA gradient,,HPLC retention,40.6 %B
CCCSc1nc(N[C@@H]2C[C@H]2c2ccc(F)c(F)c2)c2nnn([C@@H]3C[C@H](OCCO)[C@@H](O)[C@H]3O)c2n1,,"male Wistar Han rats, plasma","oral, 60 mg/kg/day, week 26, carcinogenicity study",,AUC,98.8 µM·h
COc1cc(OC)c(/C=C/S(=O)(=O)Cc2ccc(OC)c(NCC(=O)O)c2)c(OC)c1,,"cancer patients, phase I, plasma","oral, 280 mg twice daily, day 21 cycle 1",,Vss/F,1060 ± 603 L
CC[C@H](C)[C@@H]1NC(=O)[C@H](Cc2ccc(O)cc2)NC(=O)[C@@H](N)CSSC[C@@H](C(=O)N2CCC[C@H]2C(=O)N[C@@H](CC(C)C)C(=O)NCC(N)=O)NC(=O)[C@H](CC(N)=O)NC(=O)[C@H](CCC(N)=O)NC1=O,"microdialysis, radioimmunoassay","knock-out male mice lacking compound, amygdala extracellular fluid","intranasal, 12 µg, incremental area over baseline",,AUC above baseline,254 ± 113 pg·30 min/sample
COC(=O)N[C@H](C(=O)N[C@@H](Cc1ccccc1)[C@@H](O)CN(Cc1ccc(-c2ccccn2)cc1)NC(=O)[C@@H](NC(=O)OC)C(C)(C)C)C(C)(C)C,population PK model,"pregnant women, third trimester","oral, median, with: without tenofovir",,Vd/F,90 L
CC(C)=CCC[C@](C)(O[C@@H]1O[C@H](CO)[C@@H](O)[C@H](O)[C@H]1O)[C@H]1CC[C@]2(C)[C@@H]1[C@H](O)C[C@@H]1[C@@]3(C)CC[C@H](O)C(C)(C)[C@@H]3[C@@H](O[C@@H]3O[C@H](CO)[C@@H](O)[C@H](O)[C@H]3O)C[C@]12C,,"rat, extracted tissue homogenate QC samples","0.01 µg/mL, 24 h, 15 °C, autosampler",,post-preparative stability accuracy,103 ± 4.8%
CNc1nc(Nc2ccc(-n3cnc(C)n3)c(OC)c2)nc2c1CC[C@H]2c1ccc(F)cc1,,"human, plasma","oral, 100 mg, single dose, healthy volunteers",,AUC(0-inf),5.14 µg·h/mL
COc1ccc(-c2cc(=O)c3c(OC)c(OC)c(OC)c(OC)c3o2)cc1,,"C57BL/6 mouse, male, kidney","oral, 1% w/w in diet, 6 weeks, orange peel extract diet",baseline: content in orange peel,tissue to peel content ratio,0.013%
O=C(O)c1ccccc1Nc1ccc(CCc2ccc(Cl)c(Cl)c2)cc1,,extracellular recording solution,"pH 7.6, from 20 mM DMSO stock",,solubility limit,30 µM
CCc1c(-c2ccccc2)c(-c2ccccc2)nn1-c1ccccc1-c1cccc(OCC(=O)O)c1,,"rat, plasma","intravenous, 2 mg/kg",,Tmax,4.98 min
COc1cccc(N2CCN(C3=Nc4c(F)cccc4[C@H](CC(=O)O)N3c3cc(C(F)(F)F)ccc3OC)CC2)c1,,"healthy women, plasma","intravenous infusion, 240 mg, day 1, single dose, 30-min infusion",,terminal elimination rate constant,1.3e-05 ± 4.9e-06 s⁻¹
CC(C)=CCC[C@](C)(O[C@@H]1O[C@H](CO)[C@@H](O)[C@H](O)[C@H]1O)[C@H]1CC[C@]2(C)[C@@H]1[C@H](O)C[C@@H]1[C@@]3(C)CC[C@H](O[C@@H]4O[C@H](CO)[C@@H](O)[C@H](O)[C@H]4O[C@@H]4O[C@H](CO)[C@@H](O)[C@H](O)[C@H]4O)C(C)(C)[C@@H]3CC[C@]12C,,"Sprague-Dawley rat, plasma","oral, 2000 mg/kg ginseng extract, diet with NUTRIOSE 2.5% for 2 weeks",,AUC,12.9 ± 8.09 µg·h/mL
CCCC[C@@H]1NC(=O)[C@@H](NC(=O)[C@H](CCC(=O)O)NC(=O)CNC(=O)CN2CCN(CC(=O)O)CCN(CC(=O)O)CCN(CC(=O)O)CC2)CCCCNC(=O)C[C@@H](C(N)=O)NC(=O)[C@H](C(C)C)NC(=O)[C@@H]2CCCN2C(=O)[C@H](CCCNC(=N)N)NC(=O)CNC(=O)[C@H](Cc2c[nH]c3ccccc23)NC(=O)[C@H](CCCNC(=N)N)NC(=O)[C@@H](Cc2ccccc2)NC(=O)[C@H](Cc2c[nH]cn2)NC(=O)[C@H](CCC(=O)O)NC1=O [indium-111 labelled],,"normal C57 mice, muscle","intravenous, 0.037 MBq, 24 h",,tissue uptake,0.02 ± 0.01 %ID/g
[2H]C([2H])([2H])Oc1cc2c(cc1OC([2H])([2H])[2H])C1CC(=O)C(CC(C)C)CN1CC2 (stereo not drawn),item: deuterated α-HTBZ,"healthy human volunteers, plasma","oral, 24 mg single dose, standard meal",,dose-normalized AUC(0-inf),16.7 ng·h/mL
NC(=O)OCC(COC(N)=O)c1ccccc1,,"Sprague-Dawley rat, male, liver","oral, 300 mg/kg, 24 h, single low dose",direction not given,hepatocyte vacuolization score,0
C[C@@H](O)[C@H]1C(=O)N2C(C(=O)O)=C(S[C@@H]3CN[C@H](C(=O)N(C)C)C3)[C@H](C)[C@H]12,microdialysis,"pig (Danish Landrace), cancellous bone","iv infusion, 1000 mg over 10 min, MIC 0.25 µg/mL, with: vancomycin co-administered",,time above MIC,256 min
O=C(/C=C/c1cccc(S(=O)(=O)Nc2ccccc2)c1)NO,,"human normal liver function, plasma","intravenous, 400 mg/m^2, 30 min infusion, cycle 1 day -7",,clearance,661 mL/min/m²
C[C@]12CC[C@@H]3c4ccc(O)cc4CC[C@H]3[C@@H]1C[C@@H](O)[C@@H]2O,GC-MS,"breast cancer women on NSAI, serum","vaginal, 0.03 mg, 6 h, day 0",,maximum serum concentration,0 ng/mL
CCc1ccc(Cc2ccc3c(c2)[C@]2(OC3)O[C@H](CO)[C@@H](O)[C@H](O)[C@H]2O)cc1,,"Wistar rat, male, kidney","oral, dose not given, 24 h",baseline: kidney over plasma concentration,tissue/plasma ratio,201 ± 42.9
Cc1nc2cccc(OCC(C)(C)C(=O)NC(C)C)c2c(N)c1C(=O)O,,"female Sprague-Dawley rat, plasma","oral, 100 mg/kg, single dose",,AUC(0-t),0.341 µg·h/mL
CC(C)[C@H](NC(=O)[C@@H]1CCCN1C(=O)[C@H](CCCNC(=N)N)NC(=O)[C@H](CS)NC(=O)[C@H](Cc1c[nH]c2ccccc12)NC(=O)[C@H](CCCNC(=N)N)NC(=O)[C@@H](Cc1ccccc1)NC(=O)[C@H](Cc1c[nH]cn1)NC(=O)[C@H](CCC(=O)O)NC(=O)[C@H](CS)NC(=O)[C@H](CS)NC(=O)[C@H](CCCCN)NC(=O)[C@@H]1CC(=O)N[C@@H](CCCNC(=N)N)C(=O)N[C@@H]([C@@H](C)O)C(=O)N[C@@H](CC(=O)O)C(=O)N[C@H](Cc2ccc(O)cc2)C(=O)N1)C(N)=O [technetium-99m labelled],,"female C57 mouse, B16/F1 melanoma, tumour","intravenous, dose not given, 2 h, with: NDP-MSH 10 µg co-injected",,tissue uptake,2.85 ± 1.43 %ID/g
COc1ccc2[nH]cc(CCNC(C)=O)c2c1,,"wild-type FVB/N lactating female mice, milk","intravenous, 10 mg/kg, 30 min",,concentration,12 ± 4.61 µg/mL
CC(=O)c1ccc([C@H]2C[C@@]3(C)[C@@H](CC[C@@]3(O)C(F)(F)C(F)(F)F)[C@@H]3CCC4=CC(=O)CCC4=C32)cc1,,human liver microsomes,100 % absorption assumed,,maximal oral bioavailability,77%
C[C@H](N)C(=O)N[C@H](Cc1c[nH]c2ccccc12)C(=O)N[C@@H](Cc1ccccc1)C(=O)N[C@H](C(=O)N1CCC(C(N)=O)CC1)[C@@H](c1ccccc1)c1c[nH]c2ccccc12,RP-HPLC Kinetex Biphenyl,,acetonitrile/water TFA gradient,,HPLC retention,43.5 %B
CC(C)=CCC[C@](C)(O[C@@H]1O[C@H](CO)[C@@H](O)[C@H](O)[C@H]1O)[C@H]1CC[C@]2(C)[C@@H]1[C@H](O)C[C@@H]1[C@@]3(C)CC[C@H](O)C(C)(C)[C@@H]3[C@@H](O[C@@H]3O[C@H](CO)[C@@H](O)[C@H](O)[C@H]3O[C@@H]3O[C@@H](C)[C@H](O)[C@@H](O)[C@H]3O)C[C@]12C,,"rat, extracted tissue homogenate QC samples","0.05 µg/mL, 24 h, 15 °C, autosampler",,post-preparative stability accuracy,105 ± 5.6%
O=C(O)/C=C/c1ccccc1,,rat plasma QC sample,"1024 ng/mL nominal, 15 days, -80 °C, high QC level storage stability",,measured concentration,1030 ± 47.9 ng/mL
O=C1CN(/N=C/c2ccc(-c3ccc([N+](=O)[O-])cc3)o2)C(O)=N1,,"Sprague-Dawley rat, male, liver","oral, 100 mg/kg, 24 h, single low dose",direction not given,hepatocyte necrosis score,0
Cn1c(-c2ccc(C(N)=O)cc2F)nnc1C(C)(C)Oc1c(F)cc(Cl)cc1F,,"young non-Japanese subjects, plasma","oral, 50 mg single dose, day 1",,AUC(0-inf) median,7.18 µg·h/mL

# Excerpt of the above:
Structure (SMILES),test,test system,conditions,how to read,measurement,value
CC(C)=CCC[C@](C)(O[C@@H]1O[C@H](CO)[C@@H](O)[C@H](O)[C@H]1O)[C@H]1CC[C@]2(C)[C@@H]1[C@H](O)C[C@@H]1[C@@]3(C)CC[C@H](O)C(C)(C)[C@@H]3[C@@H](O[C@@H]3O[C@H](CO)[C@@H](O)[C@H](O)[C@H]3O[C@@H]3O[C@@H](C)[C@H](O)[C@@H](O)[C@H]3O)C[C@]12C,,"rat, extracted tissue homogenate QC samples","0.05 µg/mL, 24 h, 15 °C, autosampler",,post-preparative stability accuracy,105 ± 5.6%
O=C(O)/C=C/c1ccccc1,,rat plasma QC sample,"1024 ng/mL nominal, 15 days, -80 °C, high QC level storage stability",,measured concentration,1030 ± 47.9 ng/mL
O=C1CN(/N=C/c2ccc(-c3ccc([N+](=O)[O-])cc3)o2)C(O)=N1,,"Sprague-Dawley rat, male, liver","oral, 100 mg/kg, 24 h, single low dose",direction not given,hepatocyte necrosis score,0
Cn1c(-c2ccc(C(N)=O)cc2F)nnc1C(C)(C)Oc1c(F)cc(Cl)cc1F,,"young non-Japanese subjects, plasma","oral, 50 mg single dose, day 1",,AUC(0-inf) median,7.18 µg·h/mL
